# Measured values collected from several papers.
# Numbered parts are unrelated; each lists some results of a single study. Substitutions count along the parent as printed.

# Sample 1 — target: CCNF, cyclin fold, Cln2 fusion (human); technique: yeast growth competition, sequencing; sample: yeast; notes: strong parent motif; reference: not given; reading: higher = stronger binding
# Starting sequence: E2F1 docking peptide (human); PPVKRRLDLETDH
Change,normalised enrichment score
PPVKRRLDLERDH [T11R],6.42
PPVKRRLDLETLH [D12L],7.46
PPVKRRLDLETDK [H13K],7.04
PPVKRQLDLETDH [R6Q],3.94
PPVKRRLDLETQH [D12Q],7.03
DPVKRRLDLETDH [P1D],3.76
PVVKRRLDLETDH [P2V],4.85
PMVKRRLDLETDH [P2M],3.47
PPVKRRLDLEADH [T11A],6.92
PPVKRRLDLVTDH [E10V],6.01
PQVKRRLDLETDH [P2Q],6.15
PPVKRVLDLETDH [R6V],1.6
PPVKRRLDLETDN [H13N],6.12
PPVKRRLDLHTDH [E10H],6.26
PPVKRRLVLETDH [D8V],7.78
PPVKRRLDLETWH [D12W],7.52
PPVARRLDLETDH [K4A],6.41
PPVCRRLDLETDH [K4C],7.44

# Sample 2 — technique: RNA Bind-n-Seq; form: RNA; sample: in vitro; concentration: not given; reference: input RNA pool; reading: higher = stronger binding
# Target: RING finger protein unkempt homolog, zinc fingers 1-6, GST-SBP tag (UNK, Homo sapiens, UniProt Q9C0B0, residues 30-357)
# UniProt Q9C0B0, sequence (30-357, looked up): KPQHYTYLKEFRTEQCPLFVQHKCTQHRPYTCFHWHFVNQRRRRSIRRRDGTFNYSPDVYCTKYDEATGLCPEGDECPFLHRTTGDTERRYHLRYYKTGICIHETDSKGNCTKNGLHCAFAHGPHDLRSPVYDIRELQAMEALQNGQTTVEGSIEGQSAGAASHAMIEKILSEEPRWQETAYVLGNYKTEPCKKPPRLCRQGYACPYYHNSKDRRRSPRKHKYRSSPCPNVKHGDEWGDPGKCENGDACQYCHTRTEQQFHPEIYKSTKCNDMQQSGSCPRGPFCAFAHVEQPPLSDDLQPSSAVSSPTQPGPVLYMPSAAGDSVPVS
# Notes: RNA with constant flanks, human-mouse chimeric sites, ends assumed
# Constant ends, left off below: GGGAGUUCUACAGUCCGACGAUC … CAACAGAGGAUUGAGCAUCA
Strand,bound/input enrichment
UCUUUGUGUAACUUAUCUCUGUAAAAGUCCCCCCCCCUACUGUCAAAAAAUAUGCAUGUAUAGUAAUUAGGACUUCAUUCCUCCAUGUUUUCUUCCCUUAUCUUACUGUCAUUGUCCUUA,2.11 ratio
UUAAUCCCCUUUACUGCUCCCCCACUUCUCAUGGUAAUAACAAAGUCUUAUAUCCCCGUCCUAGCUUUUACUCAGAUGGCUUAUGGAGCCGGUUUCCUAUCUUUCUUGGGAGGGAUCAGA,0.719 ratio
AUAGAUGAAAUUGAUGUGGACCAGGAAGGAAUUGCUGAAAUGAUCCUGGAUGAAAAUGCUAUUGCUCAAGUUCCACGCCCUGGAACGUCUUUGAAGCUCCCUGGCACUAACCAAACAGGA,0.312 ratio
AUCCAGUACUCGAAUCACAAAGAACUAAAGACAGAUAAUACAUUAAACCAACGUGCUCAAGUAGUUCUUCAAGCUGUGACAGCUGUCCAGACAGCAAAUACACCUCUUAGUGGCACCACA,0.394 ratio
CUGUGACCACAAGAUCCUACCUGAGUGGCAGCUGAAGUUGACUCCCUCUCCUUGCCUGAACCCCCCCCCACUGCCCCCCCAUCCCCCGCAGAAUUCCGAGAUGUUGCCUCUGCACGGUUC,1.32 ratio
GAGUCGAGCAAACUUGAAACAAUUCGUUAUCUUGCAGCCUCAGUGUUCACUUGCUUGUGGCAAUAGCUGGGGUUUUAUAUAGAUUCUAAGGAGAACUGACGAUGAUGCUGCCGCUGCUGC,0.307 ratio
CACAGAGGCACCACCCCCCCCUCCUCCUUUCCACACCUGCAAACUCUUUUACUUGGGCUGAAUAUUUAGUGUUAAUUCAUCUCAGCUUUGAGGGCUCCUGUGGCAAAUUCCCGGAUUAAA,1.09 ratio
CAGUCCCCGUGUCCCAGGGGACAAUGUUGUGAACAAAAACUCAAAGCGGACCCUCUACUGUAGUUGAUGAUUCUCGAAAUGUGCUAUUAUUGUUUGUCUUUUUUUUUUUUUUUUUAAAGA,1.86 ratio
GGACAUCUGUCAAAUUGUUAUGUUCCUGUGAAACAAGUGAACACUCUGAUACACUUCAUCUGCUUGUACAUCUGUAUGAUAGAGAAACAGAAAUCUAUUAAUCCAAGCAAUGUGUCACUU,0.123 ratio
UGGCGCCUGCGCUCCCCACUCGUGUUUGUAUUUUUAUUUUUAUAAGAUACAUGUAUUUGUAAUAGAUCUUUUGUUACAUAAUGCUGAAAUGCUACUGGAGAUUAUGAAAAAUGUUUCAAU,0.523 ratio
UCUUUAAAAAAAAAAUUACCUUUUCUGACAGUGCUUUCCCUCCCAUAGAUCCACGUUCAAGCUCAAAGAGCAAAGGCUUUGCACGGAGCUCAAACAUAAAAGAAAGAUUUUUGAGACAGA,0.844 ratio

# Sample 3 — technique: protein binding microarray; form: double-stranded DNA, one strand shown; sample: in vitro; concentration: not given; reference: not given; reading: higher = stronger binding
# Target: Histone acetyltransferase KAT6A, winged helix 1, GST fusion (KAT6A, Homo sapiens, UniProt Q92794, residues 1-85)
# Notes: 8-mer, flanks averaged, mean of 2 arrays, mostly near background
# Residues (chain): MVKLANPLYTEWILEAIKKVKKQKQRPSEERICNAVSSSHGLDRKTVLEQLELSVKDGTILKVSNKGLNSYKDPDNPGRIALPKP
Strand,E-score
GTGGTCTA,-0.101
AACTTTTG,-0.131
AGGATTTA,-0.098
ATCGCTAC,0.123
CACCCTGA,-0.236
ATCTACTA,-0.0307
CCTCAGCA,-0.016
AATCGTGC,0.0234
CCTAGCCG,0.325
ATCTCAGC,-0.00764
GCTAACAC,0.0596
GATGGACA,-0.0287
AAGGGCGT,0.137
CAAATAGC,-0.0999
CGATAGTC,0.021
ACAAGCTG,-0.171
GACCAACA,-0.192

# Sample 4 — technique: protein-binding microarray; form: double-stranded DNA, one strand shown; sample: in vitro; concentration: not given; reading: higher = stronger binding
# Target: Hepatocyte nuclear factor 3-beta, forkhead domain (FOXA2, Homo sapiens, UniProt Q9Y261, residues 142-269)
# Notes: k-mer, scored over probes, only values ≥0.25
# Target sequence (chain): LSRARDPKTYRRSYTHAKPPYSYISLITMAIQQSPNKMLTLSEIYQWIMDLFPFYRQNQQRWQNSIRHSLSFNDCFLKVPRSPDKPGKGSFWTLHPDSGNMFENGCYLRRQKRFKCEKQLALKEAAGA
Strand,E-score
AATAGGAT,0.268
ATATCGGA,0.276
ATACATGG,0.335
AAGTTTAT,0.263
CAACGATA,0.291
AGCATATG,0.276
CGTGTATA,0.262
AAACCCAT,0.314
AGTACAAT,0.284
AATGTAAG,0.276
ATATGATA,0.357
AAGTACTA,0.313
TATCATAA,0.338
AAATGTAT,0.295
AAATATGG,0.356
CTGTTTGC,0.305
ATTCACAA,0.28
TACGAATA,0.304
CGACTATA,0.312
GCATAATA,0.327
ACAACATC,0.282
ATGATTGC,0.251
ATACATAG,0.322
AAACAACT,0.304
AAATAACA,0.349

# Sample 5 — technique: RNA Bind-n-Seq; form: RNA; sample: in vitro; concentration: 200 nM; notes: whole 134-nt RNA, ends assumed; added: 150 mM KCl; reference: input library; reading: higher = stronger binding
# Target: Ras GTPase-activating protein-binding protein 1, full length (G3BP1, Homo sapiens, UniProt Q13283)
# UniProt Q13283, sequence (whole entry, looked up): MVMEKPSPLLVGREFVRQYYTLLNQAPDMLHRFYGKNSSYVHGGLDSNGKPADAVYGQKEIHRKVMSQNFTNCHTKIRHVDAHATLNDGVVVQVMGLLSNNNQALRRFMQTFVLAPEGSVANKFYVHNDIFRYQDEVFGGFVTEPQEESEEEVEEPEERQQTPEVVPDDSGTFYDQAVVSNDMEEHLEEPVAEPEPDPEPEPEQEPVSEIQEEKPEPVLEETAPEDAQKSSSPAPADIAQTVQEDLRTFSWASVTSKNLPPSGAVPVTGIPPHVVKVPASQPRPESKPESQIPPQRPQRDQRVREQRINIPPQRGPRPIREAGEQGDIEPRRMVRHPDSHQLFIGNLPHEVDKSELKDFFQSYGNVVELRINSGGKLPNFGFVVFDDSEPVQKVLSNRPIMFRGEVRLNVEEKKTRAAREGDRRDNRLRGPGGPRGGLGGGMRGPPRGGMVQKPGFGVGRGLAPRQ
# Constant ends, left off below: GGGAGUUCUACAGUCCGACGAUC … UGGAAUUCUCGGGUGUCAAGG
Strand,log2 enrichment
CUCAAGUCCUGUGCUACACAUCGUAUGUACCGAAUCGGGAGGGAGGGGAGGGGAAAGUAUUAUGUUACGCCGUUCGGAUCUGCACUUCCA,1.48
UCCUGUGCUACACAUCGUAUGUACCGAAUCGGGUUUUUUGGGUUUUUUGGGUUUUUUGGGAAAGUAUUAUGUUACGCCGUUCGGAUCUGC,-0.264
CAAGUCCUGUGCUACACAUCGUAUGUACCGAAUCGGUUUUUGGAAAGGAAAAAGGAAAGUAUUAUGUUACGCCGUUCGGAUCUGCACUUC,-0.832
UCCUGUGCUACACAUCGUAUGUACCGAAUCGGUUUUUUGGGUUUUUUGGGUUUUUUGGGAAAGUAUUAUGUUACGCCGUUCGGAUCUGCA,-0.62
UUUCCAAGAAGUGCACUGAAAAUGACAUCCGAGUCAUGUUCUCUUCGUUUGGACAGAUUGAAGAAUGCCGGAUAUUGCGGGGACCUGAUG,0.296
CUCAAGUCCUGUGCUACACAUCGUAUGUACCGAAUCGGGGUUGGGUUGGUUGGAAAGUAUUAUGUUACGCCGUUCGGAUCUGCACUUCCA,0.226
UAACUUUAGAGGAGGAUCUGAUGGAUAUGGCAGUGGACGUGGAUUUGGGGAUGGCUAUAAUGGGUAUGGAGGAGGACCUGGAGGUGGCCA,0.289
GCAGGAAGUAAAAACAAAUGGAAAUGCUUCGGAUAGUGGCAGGGGUGGGGGUUGCUAAGGAAAGGGUGGGAUGGGAGUGGGUCAAGAGUU,1.02
AUUUCUCAGUUGAAGGAUGCUUACACUCUUGUCCAUCUAGACCUCAAUUACUGUUUUUCAGGAAUGUCUGAUCACAGAUACGGGGAUGGU,-1.2
UAACUUUAGAGGAGGAUCUGAUGGAUAUGGCAGUGGACGUGGAUUUGGGGCUGGCUAUAAUGGGUAUGGAGGAGGACCUGGAGGUGGCAA,0.19
AGUCCUGUGCUACACAUCGUAUGUACCGAAUCGGGGAAAGGGGUUUGGGGAAAGGGGAAAGUAUUAUGUUACGCCGUUCGGAUCUGCACU,0.648
UAACUUUAGAGGAGGAUCUGAUGGAUAUGGCAGUGGACGUGGAUUUGGGGAUGGCUAUAAUGGGUAUGGAGGAGGUCCUGGAGGUGGCAA,0.384
CCUGUGCUACACAUCGUAUGUACCGAAUCGGGUUUUUUGGGGUUUUUUGGGGUUUUUUGGGAAAGUAUUAUGUUACGCCGUUCGGAUCUG,-0.445
UCCUGUGCUACACAUCGUAUGUACCGAAUCGGGAAAAAGGGUUUUUGGGUUUUUUUGGGAAAGUAUUAUGUUACGCCGUUCGGAUCUGCA,-0.561

# Excerpt of the above (sample 5):
Strand,log2 enrichment
CUCAAGUCCUGUGCUACACAUCGUAUGUACCGAAUCGGGAGGGAGGGGAGGGGAAAGUAUUAUGUUACGCCGUUCGGAUCUGCACUUCCA,1.48
UCCUGUGCUACACAUCGUAUGUACCGAAUCGGGUUUUUUGGGUUUUUUGGGUUUUUUGGGAAAGUAUUAUGUUACGCCGUUCGGAUCUGC,-0.264
CAAGUCCUGUGCUACACAUCGUAUGUACCGAAUCGGUUUUUGGAAAGGAAAAAGGAAAGUAUUAUGUUACGCCGUUCGGAUCUGCACUUC,-0.832
UCCUGUGCUACACAUCGUAUGUACCGAAUCGGUUUUUUGGGUUUUUUGGGUUUUUUGGGAAAGUAUUAUGUUACGCCGUUCGGAUCUGCA,-0.62
UUUCCAAGAAGUGCACUGAAAAUGACAUCCGAGUCAUGUUCUCUUCGUUUGGACAGAUUGAAGAAUGCCGGAUAUUGCGGGGACCUGAUG,0.296
CUCAAGUCCUGUGCUACACAUCGUAUGUACCGAAUCGGGGUUGGGUUGGUUGGAAAGUAUUAUGUUACGCCGUUCGGAUCUGCACUUCCA,0.226
